Measurements pooled from the literature.
Each numbered part is a random draw from the data of one study; scales do not carry over between parts. Changes are numbered by the printed parent chain.

Set 1 — method: universal PBM; molecule type: double-stranded DNA, one strand shown; matrix: in vitro; concentration: not given; direction: higher = stronger binding
Target: Sal-like protein 4, full length isoform B (SALL4, Homo sapiens, UniProt Q9UJQ4-2, residues 1-616)
Notes: 8-mer, flanks averaged, mean of replicates
Target sequence (chain): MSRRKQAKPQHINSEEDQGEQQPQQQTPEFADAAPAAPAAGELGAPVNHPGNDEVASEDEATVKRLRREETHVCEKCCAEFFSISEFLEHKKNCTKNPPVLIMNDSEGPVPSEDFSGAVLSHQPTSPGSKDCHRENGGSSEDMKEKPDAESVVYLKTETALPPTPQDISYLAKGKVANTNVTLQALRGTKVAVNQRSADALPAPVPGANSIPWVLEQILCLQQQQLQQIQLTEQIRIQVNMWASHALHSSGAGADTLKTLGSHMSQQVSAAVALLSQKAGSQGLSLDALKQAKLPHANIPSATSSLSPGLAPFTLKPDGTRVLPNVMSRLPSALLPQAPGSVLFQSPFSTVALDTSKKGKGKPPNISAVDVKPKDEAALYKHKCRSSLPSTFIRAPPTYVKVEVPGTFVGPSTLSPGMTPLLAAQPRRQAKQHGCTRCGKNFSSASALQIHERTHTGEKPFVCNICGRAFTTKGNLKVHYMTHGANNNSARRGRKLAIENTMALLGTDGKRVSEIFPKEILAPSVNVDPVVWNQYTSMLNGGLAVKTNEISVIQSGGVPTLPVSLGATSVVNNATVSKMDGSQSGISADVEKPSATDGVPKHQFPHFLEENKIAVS
Strand | E-score
ATACCGGG | -0.0424
AGAACCCT | -0.206
AGTATCGA | 0.177
CGGTAAGA | -0.212
GCCTGGCC | -0.249
ATTACGAC | 0.168
ATCGATTG | 0.0911
ACAACCGT | -0.0537
ACGTTTTC | 0.174
TACTCGGA | 0.0369
GCACGGTA | -0.115
AACGCTAA | -0.039
GATAGACC | 0.0226
CAGTAGCA | -0.0592
GCCATTAC | -0.116
CACTCATC | 0.0538
ATAAGGCC | -0.0481
GCCCAGAC | -0.366
ATACATCG | 0.133
CGTCTTGA | -0.035
GAACCACC | -0.153

Set 2 — method: protein-binding microarray; molecule type: double-stranded DNA, one strand shown; matrix: in vitro; concentration: not given; direction: higher = stronger binding
Target: Hepatocyte nuclear factor 3-beta, forkhead domain (FOXA2, Homo sapiens, UniProt Q9Y261, residues 142-269)
Notes: k-mer, scored over probes, only values ≥0.25
Construct (chain): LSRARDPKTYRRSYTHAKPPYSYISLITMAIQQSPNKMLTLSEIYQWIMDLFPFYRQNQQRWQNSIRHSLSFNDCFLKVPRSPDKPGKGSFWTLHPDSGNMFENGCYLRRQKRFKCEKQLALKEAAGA
Strand | E-score
TAGATACA | 0.307
GCACACAA | 0.279
AACCTATA | 0.323
AAATTTAC | 0.253
GAATATAC | 0.284
TTACCTAA | 0.259
TAATAGAA | 0.282
AATAACAA | 0.371
AATACATT | 0.308
GTGTTGTA | 0.268
ATTACAGG | 0.301
AGTGTTAT | 0.25
ATAAAAAT | 0.267
CTACACAA | 0.287
ACGTACAC | 0.287
AAACACAT | 0.326
ATGTTGTA | 0.345
AATGCATT | 0.292
AAACTACT | 0.262
GACATAAA | 0.263
ATAACATA | 0.349
CTGTTATA | 0.307
CATATGTA | 0.299

Set 3 — method: DHFR PCA, deep sequencing; matrix: yeast; together with: (+)-ABA 17 µM; relative to: wild-type fitted maximum; direction: higher = stronger binding
Target: ABI1, truncated, D143A, DHFR fusion (Arabidopsis thaliana)
Notes: methotrexate growth selection, single substitutions
Starting sequence: PYL1, truncated, DHFR fusion (Arabidopsis thaliana); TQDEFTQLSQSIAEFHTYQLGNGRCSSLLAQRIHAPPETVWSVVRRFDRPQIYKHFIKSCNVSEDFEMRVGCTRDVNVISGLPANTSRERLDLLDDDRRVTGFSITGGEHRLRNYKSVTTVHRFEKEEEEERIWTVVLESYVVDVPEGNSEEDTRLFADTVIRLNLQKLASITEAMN
Substitution | relative binding score [%]
T160C | 71.3
E109G | 53.3
V136I | 88.1
D95R | 9.51
V121Y | -13.7
F157Y | 49.1
K116H | 73.9
F124T | 54
L20A | 89.4
I57L | 73.3
S150I | 20.6
T17F | 37.3
F56N | 0.488
N61Y | 83.9

Set 4 — method: RNA Bind-n-Seq; molecule type: RNA; matrix: in vitro; concentration: 365 nM; relative to: no-protein control; direction: higher = stronger binding
Target: RNA binding protein fox-1 homolog 2, RRM domain, GST-SBP tag (RBFOX2, Homo sapiens, UniProt O43251-10, residues 100-194)
Notes: natural RNA segment, single round, ends assumed
Constant ends, left off below: GGGAGUUCUACAGUCCGACGAUC … UGGAAUUCUCGGGUGCCAA
Residues (chain): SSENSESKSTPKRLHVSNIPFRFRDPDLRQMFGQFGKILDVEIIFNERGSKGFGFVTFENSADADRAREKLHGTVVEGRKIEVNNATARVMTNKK
Strand | RBNS enrichment (R)
AAAGCCAGAGUGCAAGUCAUGAUUUGCGGGAGGGCUCUUGAACCACUUCUGGCUGCACCACAAUUCUGUACUUGAGUAUCACAGUCAUUGUUUUUGAGACAAACAUUUUU | 0.556
CCCUCCAUGGGGUGAAGCCACACUCAGUGGGUGUGUCACUUCAGGCUCUGUGGGCUGUGCUCAGUCUGUGGCCCAGCACCCCUGCCCUAGAAAGGGGCAACACAGGGUAC | 0.227
GCUUUAUGUGGCCCUGGGUUCAAACACAGCCCUUCAUAUGUAUAUAGCCAAACACUCUACAACUGAGCUACAUCCUCCAGCCUAGGCUGUAAAUGUUUUUUGGAGCUAGA | 0.312
AUGAUGAUAGGGCAAGCAUUCUUCUAAUCGAUUUUAAUUGUCCUUUGUGUGAAAAACAAAACAAAACAAACAAAAAAACCCAGAAACUUAUCCAUAAAUAACUACAUGAC | 0.966
UCUGUGUGUGAAAUUUGGGCAUUCUGCUUUUCUCUACUAAUCUUGAAGUGCUCAGUGAUUUGUGUAUUUGUGUCUUUCUAACUUCUAAUAAACUCACUCCGACUGACCUG | 0.476
GAUUCUGAGGAUUUGUUUAACUAAAAAGUUCCCAAACACAGAAAGGGCCUCCCCACCUGCUUUGGGGAGCUGUCUGUGCUGGGAGUGCCAGGCAUCCCAUGGGACCCAUC | 0.169
CUCAUCCAGUCCUCUCUUCCUCAGGCCACCCAGGGACAGUUCACAUCUGCAGCCUUCAGAAUGUCCUGUAGGAGUGUCACCAACCCAGGUCCAAGUGUUCAUGCCUGUCC | 0.563
GAAUACUAUCAACAUGGACUAUCCUGGGAAAGAGCUAGGAAGUAGAUGCUGAGGUCCCCAUCCAAACAGCAAGCUAGGAAAAAGCCUGCCUUGAAAAUAUUUCUAGACAU | 0.572
GCCAAGGCCGCCAGCGUGUGGAGCAGAGCUCUCCCCUCCUGCUGGGCGUGUGUGACACUGAUGAGUUUCACUGUACUGCAUGUGACUUCUCCCCUGCCCUUCCUCCUGAU | 1.77
GAAAAGUUGAAGGGAAAAUACUGGAAUGCUUCUUCAAAGGUUAAAAAAUAACCGAGUCUUUUGGUAAUUUGACCCCACGUGCUCUCUGGCCCUCAAGCAUGUAACCUCGG | 2.12
UAUGAAAGAUCAUUAAUCAAAGAAUAAGGAAGAAACAAGGUAAAACAGUCCUAAAAUGAUGGAACUAUUUAAAAGGGUGUCAACUCUUAAGAGAACACCUGUGGUUUAAA | 0.589
GCCAUUGUGAGGUUGGGGGAAGACCUGGCCGUGGAGCUACAAGCUUGUGCGGAUGUCAGGGGACAUUACUGUUGCUAAUAAAGUCCAAAGUGGCCAAUGCCUUUCCCAAA | 0.641

Set 5 — method: RNA Bind-n-Seq; molecule type: RNA; matrix: in vitro; concentration: 1 µM; notes: whole 134-nt RNA, ends assumed; together with: 150 mM KCl; relative to: input library; direction: higher = stronger binding
Target: Ras GTPase-activating protein-binding protein 1, RRM domain (G3BP1, Homo sapiens, UniProt Q13283)
Chain of UniProt Q13283 (whole entry, looked up): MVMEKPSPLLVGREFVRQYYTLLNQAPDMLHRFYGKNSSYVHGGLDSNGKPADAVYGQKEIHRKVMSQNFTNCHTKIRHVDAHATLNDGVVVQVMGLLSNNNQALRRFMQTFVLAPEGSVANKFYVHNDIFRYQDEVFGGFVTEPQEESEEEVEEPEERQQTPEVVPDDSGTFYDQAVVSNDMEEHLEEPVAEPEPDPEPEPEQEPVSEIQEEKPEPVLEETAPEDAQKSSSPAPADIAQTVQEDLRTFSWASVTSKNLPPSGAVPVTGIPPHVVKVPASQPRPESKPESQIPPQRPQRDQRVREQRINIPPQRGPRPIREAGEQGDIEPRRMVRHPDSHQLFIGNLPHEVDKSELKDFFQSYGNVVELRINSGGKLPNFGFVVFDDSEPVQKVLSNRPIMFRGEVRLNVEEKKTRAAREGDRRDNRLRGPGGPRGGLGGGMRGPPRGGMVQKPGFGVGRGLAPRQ
Constant ends, left off below: GGGAGUUCUACAGUCCGACGAUC … UGGAAUUCUCGGGUGUCAAGG
Strand | log2 enrichment
UCCUCAAGUCCUGUGCUACACAUCGUAUGUACCGAAUCGGGCGGGCGGCGGAAAGUAUUAUGUUACGCCGUUCGGAUCUGCACUUCCAGC | -0.152
CACAGACAACACGCACCCACACAGACACAGAGGGAAGGGGUUGGGAUGGGGACAGGGUGCACAGCAGGGCGGGGUAGGAGCCCAGCCCCU | -0.442
UGGGAGGUGGAUUUUGUUUAUUUUUUUAGCUCAUUUCUAGGGGUGGGAAUUUUUUUUUAAUAUGUGUCAUGAAUAAAGUUGUUUUUGAAA | 2.07
CUCAAGUCCUGUGCUACACAUCGUAUGUACCGAAUCGGGGCCGGGCCGGCCGGAAAGUAUUAUGUUACGCCGUUCGGAUCUGCACUUCCA | -0.419
GCAGGAAGUAAAAACAAAUGGAAAUGCUUCGGAUAGUGGCAGGGGUGGGGGUUGCUAAGGAAGGGGUGGGAUGGGAGUGGGUAAAGAGUU | 1.25
UGUCGGGGCCAAAGUGGUAACGAACGCCCGCAGCCCGGGGGCUCGAUGCUAUGGAUUCGUCACCAUGUCGACAUCUGACGAGGCGACCAA | -0.601
CAAGUCCUGUGCUACACAUCGUAUGUACCGAAUCGGCCCGGGGCCCGGGCCCGGGAAAGUAUUAUGUUACGCCGUUCGGAUCUGCACUUC | -0.699
CAAGUCCUGUGCUACACAUCGUAUGUACCGAAUCGGUUUUUGGUUUUUGGAAAGGAAAGUAUUAUGUUACGCCGUUCGGAUCUGCACUUC | -0.2
ACCAUGCAGGUGGGCAUCUUUGGGAAGUGGGGCAAGGAAAGGAUAGGGAGGGGGGUAACACUUUGGGAACAGGUGGUCCCAGGUCGUUUC | -0.336
ACCAUGCAGGUGGGCAUCUUUGGGAAGUGGGGCAAGGGGGGGAUAGGGAGGGGGGUAACACUUUGGGAGCAGGUGGUCCCAGGUCGUUUC | 0.827
CCUGUGCUACACAUCGUAUGUACCGAAUCGGGGAGGGGAAAAAAAGGGGAAAAAAAGGGGAAAGUAUUAUGUUACGCCGUUCGGAUCUGC | 0.388
AGUCCUGUGCUACACAUCGUAUGUACCGAAUCGGGAAAGGGAAAAAGGGUUUUUGGGAAAGUAUUAUGUUACGCCGUUCGGAUCUGCACU | 0.23
CCUGUGCUACACAUCGUAUGUACCGAAUCGGCCCCCCGGGGCCCCCCGGGCCCCCCGGGGAAAGUAUUAUGUUACGCCGUUCGGAUCUGC | -0.615
CCUCAAGUCCUGUGCUACACAUCGUAUGUACCGAAUCGGAGGAGGGGAGGGGAAAGUAUUAUGUUACGCCGUUCGGAUCUGCACUUCCAG | -0.218

Set 6 — method: protein binding microarray; molecule type: double-stranded DNA, one strand shown; matrix: in vitro; concentration: not given; relative to: not given; direction: higher = stronger binding
Target: Histone acetyltransferase KAT6A, winged helix 1, GST fusion (KAT6A, Homo sapiens, UniProt Q92794, residues 1-85)
Notes: 8-mer, flanks averaged, mean of 2 arrays, mostly near background
Construct (chain): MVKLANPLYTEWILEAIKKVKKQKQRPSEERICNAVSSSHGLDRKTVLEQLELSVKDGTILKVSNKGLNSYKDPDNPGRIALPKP
Strand | E-score
ACTGTCTA | -0.141
CCGGTGCA | 0.196
CTATCGCC | 0.0412
AAGGGTGA | -0.125
AGTTGTGA | -0.196
ACGCTCCA | 0.0679
CCATTTGC | -0.145
AAGACGCG | 0.262
GGATACTA | -0.117
AGAACAAG | -0.156
CCCGATGA | 0.168
GCTAGGCC | 0.14
CATTCTTA | -0.186
AAACGATG | 0.084
AGACAATC | -0.146
ATTCTTTA | -0.14
ATAATTAG | -0.0466
TCCCAAGA | -0.216

Some of these lines once more (set 3):
Substitution | relative binding score [%]
T160C | 71.3
E109G | 53.3
V136I | 88.1
D95R | 9.51
V121Y | -13.7
F157Y | 49.1
K116H | 73.9
F124T | 54
L20A | 89.4
I57L | 73.3
S150I | 20.6
T17F | 37.3
F56N | 0.488
N61Y | 83.9
